Measured values pooled from the literature.
Each numbered part is a random draw from the data of one study; scales do not carry over between parts.

Block 1 — technique: RNA Bind-n-Seq; form: RNA; medium: in vitro; tested at: not given; relative to: input RNA pool; reading: higher = stronger binding; measurement: bound/input enrichment
Target: RING finger protein unkempt homolog, zinc fingers 1-6, GST-SBP tag (UNK, Homo sapiens, UniProt Q9C0B0, residues 30-357)
Notes: RNA with constant flanks, human and mouse sites, ends assumed
Constant ends, left off below: GGGAGUUCUACAGUCCGACGAUC … CAACAGAGGAUUGAGCAUCA
Target sequence (chain): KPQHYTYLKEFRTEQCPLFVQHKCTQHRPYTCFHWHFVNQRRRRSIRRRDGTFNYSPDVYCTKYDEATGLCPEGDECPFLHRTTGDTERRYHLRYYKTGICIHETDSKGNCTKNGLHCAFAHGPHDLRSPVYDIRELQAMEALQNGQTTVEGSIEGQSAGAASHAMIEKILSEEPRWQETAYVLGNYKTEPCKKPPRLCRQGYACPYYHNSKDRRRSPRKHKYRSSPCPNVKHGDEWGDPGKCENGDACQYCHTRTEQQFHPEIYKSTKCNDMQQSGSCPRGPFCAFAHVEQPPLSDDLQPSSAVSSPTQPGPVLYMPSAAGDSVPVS
CAAAAAAGAUAUGAGGAAGAGCUCCUCCCCUUCCUUGAGUAACUGCAACUCCGUUCUUGCUAACAAAAUAUUUGGAAUUCCACUUGAUGAGCUGCAGCAGGGAGGACAUCCAGACAAUGA: 0.167 ratio
UCCUGGAACCUGUGACAAAGUCAAUAACAUCCACCCAACUGUCCAUACAAAGACUGAUAAUUCUGUUGCCUCUUCACCAUCUUCAGCCAUUUCCACAGCAACACCUUCUCCUAAGUCCAC: 0.313 ratio
GAUGUGGAAAUAAUCUUUAAUGAGCGCGGCUCCAAGGGAUUCGGGUUCGUAACUUUCGAGAAUAGUGCUGAUGCAGACAGGGCCAGGGAGAAAUUGCACGGCACCGUGGUAGAGGGCCGU: 0.999 ratio
AGUCCAUGUUAAGUUUCAUUUAAAAGAUGCAUUUAUAUUUUGUUCUGUAAUAUUCUACUGUAGGUGAAAUCUUCAAAAAUCAAGAGACUGGGUAGUUAAGAAUAUAUGAAUGACUAAUAU: 0.642 ratio
AUGGACUUGGCAGCCAAUGAAAAGGCCGUUCAUGCAGACUUUUUUAACGAUUUUGAAGAUCUUUUUGAUGAUGAUGACAUCCAGUGAGAUGCCCUCUGGCUGCAGGCGGGGCCAAGCCCU: 0.337 ratio
UCUAAGGAAGCACAGAUAAGAGAAACUGAAACGUUUUCAGAUUCAUCUCCAAUUGAAAUUAUAGAUGAGUUCCCUACAUUGAUCAGUUCUAAAACUGAUUCAUUUUCUAAAUUAGCCAGG: 0.795 ratio
UUGCUAUGCAACUUUUACAGAUUCUGGAACCGAAGAUGUUUCGCUAUGCUCACAAAUUGGAGGUUCAGAGAACAGAUGGAGUACUCAGCCAGCUGUCUCCUCUACCACAUCUCUAUUCUG: 0.0619 ratio
AUUUUACAAGUAAAAUCAACUAAAGGGAAAGUUGAGGUAUUCUGCAGCCAGAGACUUAGAAACGCUGUGUGGACUUGUCAUGAGUGGUCAAGGUGAUGGGCUAUAGUGUCAGUUAAGAGU: 1.27 ratio

Block 2 — technique: protein-binding microarray; form: hairpin DNA; medium: in vitro; tested at: not given; relative to: not given; reading: higher = stronger binding; measurement: median fluorescence; constant ends, left off below: GAGGCCAG … CTGGCCTCACACTC
Target: Protein C-ets-1, full length (ETS1, Homo sapiens, UniProt P14921, residues 1-441)
Notes: whole hairpin DNA, median over replicate spots
Construct (chain): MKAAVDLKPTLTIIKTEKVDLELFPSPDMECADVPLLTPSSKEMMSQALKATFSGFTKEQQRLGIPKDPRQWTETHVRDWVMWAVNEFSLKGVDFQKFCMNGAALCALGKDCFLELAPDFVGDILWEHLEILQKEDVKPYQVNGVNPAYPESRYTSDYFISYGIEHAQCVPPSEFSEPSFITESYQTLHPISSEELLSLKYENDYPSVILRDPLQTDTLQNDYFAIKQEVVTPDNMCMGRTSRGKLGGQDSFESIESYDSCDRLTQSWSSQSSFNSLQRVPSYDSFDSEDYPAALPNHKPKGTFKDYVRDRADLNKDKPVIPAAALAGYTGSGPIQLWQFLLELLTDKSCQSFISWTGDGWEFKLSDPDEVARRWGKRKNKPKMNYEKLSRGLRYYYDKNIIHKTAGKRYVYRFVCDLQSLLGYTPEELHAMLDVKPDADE
CCGGAACGTGCCTCCTGGCACGTTCCGG: 920 a.u.
TCGGAACGTGCCTCCTGGCACGTTCCGA (5mC at 29): 584 a.u.
CCGCGAGTTGCCTCCTGGCAACTCGCGG (5mC at 12 32): 552 a.u.
CCGGAAGTGGCCTCCTGGCCACTTCCGG: 9830 a.u.
TCGGAAGTTGCCTCCTGGCAACTTCCGA (5mC at 30): 4950 a.u.
CCGGATGTTGCCTCCTGGCAACATCCGG: 7870 a.u.
TCGGAAGCGGCCTCCTGGCCGCTTCCGA (5mC at 16): 1470 a.u.
TCGGAAGCGGCCTCCTGGCCGCTTCCGA (5mC at 28): 2200 a.u.

Block 3 — technique: protein binding microarray; form: double-stranded DNA, one strand shown; medium: in vitro; tested at: not given; relative to: not given; reading: higher = stronger binding; measurement: E-score
Target: Histone acetyltransferase KAT6A, both winged helices, GST fusion (KAT6A, Homo sapiens, UniProt Q92794, residues 1-181)
Notes: 8-mer, flanks averaged, mean of 2 arrays, mostly near background
Residues (chain): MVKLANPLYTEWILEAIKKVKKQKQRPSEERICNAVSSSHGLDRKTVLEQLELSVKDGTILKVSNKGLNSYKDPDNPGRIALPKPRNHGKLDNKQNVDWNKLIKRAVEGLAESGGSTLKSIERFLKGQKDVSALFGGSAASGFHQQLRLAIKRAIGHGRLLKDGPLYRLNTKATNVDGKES
CTATACCC: -0.00791
CCTGCTTA: -0.102
CCAGGCCA: -0.125
CCATACCC: -0.0631
CAGGTAGG: -0.0835
CAAAATCC: -0.127
ATGTGTAA: -0.0848
TAGTCCAA: -0.17

Single results of other studies
NS(=O)(=O)c1cc2c(cc1Cl)N=C(CSCc1ccccc1)NS2(=O)=O
viability (A-375; 100 µM, 36 h): 114%
